Measured values gathered from unrelated publications.
Numbered parts are unrelated; each lists some results of a single study. Substitutions count along the parent as printed.

Block 1
Target: CCND1, cyclin fold, Cln2 fusion (human)
Technique: yeast growth competition, sequencing
Matrix: yeast
Setting: weak parent motif
Relative to: not given
Reading: higher = stronger binding
Starting sequence: DTL docking peptide (human); PSSMRKICTYFHR; partner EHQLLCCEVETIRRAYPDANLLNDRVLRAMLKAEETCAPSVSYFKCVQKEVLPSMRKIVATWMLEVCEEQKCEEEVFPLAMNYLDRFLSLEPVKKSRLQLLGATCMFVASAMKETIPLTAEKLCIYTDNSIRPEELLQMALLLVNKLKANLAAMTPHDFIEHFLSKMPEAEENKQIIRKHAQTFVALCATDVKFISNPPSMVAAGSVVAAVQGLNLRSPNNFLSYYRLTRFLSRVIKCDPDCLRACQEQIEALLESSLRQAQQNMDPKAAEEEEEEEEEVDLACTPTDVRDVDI
| Substitution | normalised enrichment score |
| --- | --- |
| PSSMRAICTYFHR [K6A] | 0.765 |
| PSSMRKICTAFHR [Y10A] | 0.886 |
| PSSMAKICTYFHR [R5A] | 0.506 |
| PSSMRKACTYFHR [I7A] | 0.559 |
| ASSMRKICTYFHR [P1A] | 0.477 |
| PSSMRKICTYFHA [R13A] | 0.644 |

Block 2
Target: UBE2U UBC core domain (UniProt Q5VVX9)
Sequence of UniProt Q5VVX9 (whole entry, looked up): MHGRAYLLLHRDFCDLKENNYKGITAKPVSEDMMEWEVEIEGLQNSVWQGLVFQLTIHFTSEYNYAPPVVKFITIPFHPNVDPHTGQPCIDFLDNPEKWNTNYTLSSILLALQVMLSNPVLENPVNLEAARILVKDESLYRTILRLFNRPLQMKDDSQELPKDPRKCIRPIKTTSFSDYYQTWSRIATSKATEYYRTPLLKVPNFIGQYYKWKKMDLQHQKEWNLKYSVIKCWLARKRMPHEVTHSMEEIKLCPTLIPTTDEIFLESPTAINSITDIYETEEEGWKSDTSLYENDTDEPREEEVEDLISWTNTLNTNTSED
Technique: yeast two-hybrid
Matrix: yeast
Setting: mostly zero background
Relative to: not given
Reading: higher = stronger interaction
B1: PJA2 RING domain (UniProt O43164); chain DHTAIGQEQCCPICCSEYIKDDIATELPCHHFFHKPCVSIWLQKSGTCPVCRRHFPPAVIEA
B2: RNF32 RING domain (UniProt Q9H0A6); chain VQALRRETHECSICLAPLSAAGGQRVGAGRRSREMALLSCSHVFHHACLLALEEFSVGDRPPFHACPLCRSCYQKKILEC
| Molecule | lacZ reporter activity |
| --- | --- |
| B1 (PJA2 RING domain) | 10700 |
| FLSKVEETFQCICCQELVFRPITTVCQHNVCKDCLDRSFRAQVFSCPACRYDLGRSYAMQ (UHRF1 RING domain (UniProt Q96T88)) | 0 |
| GSEEEEIPFRCFICRQAFQNPVVTKCRHYFCESCALEHFRATPRCYICDQPTGGIFNPA (RNF113B RING domain (UniProt Q8IZP6)) | 8680 |
| EDVLSKDAGECAICLEELQQGDTIARLPCLCIYHKGCIDEWFEVNRSCPEHPSD (ZNRF2 RING domain (UniProt Q8NHG8)) | 8720 |
| PLRRLQEEKLCKICMDRHIAVVFIPCGHLVTCKQCAEAVDRCPMCSAVIDFKQRVF (BIRC8 RING domain (UniProt Q96P09)) | 0 |
| B2 (RNF32 RING domain) | 7970 |

Block 3
Target: Protein C-ets-1 (ETS1, Homo sapiens, UniProt P14921, residues 1-441, K379A, full length assumed)
Sequence of UniProt P14921 (whole entry, unmodified, looked up): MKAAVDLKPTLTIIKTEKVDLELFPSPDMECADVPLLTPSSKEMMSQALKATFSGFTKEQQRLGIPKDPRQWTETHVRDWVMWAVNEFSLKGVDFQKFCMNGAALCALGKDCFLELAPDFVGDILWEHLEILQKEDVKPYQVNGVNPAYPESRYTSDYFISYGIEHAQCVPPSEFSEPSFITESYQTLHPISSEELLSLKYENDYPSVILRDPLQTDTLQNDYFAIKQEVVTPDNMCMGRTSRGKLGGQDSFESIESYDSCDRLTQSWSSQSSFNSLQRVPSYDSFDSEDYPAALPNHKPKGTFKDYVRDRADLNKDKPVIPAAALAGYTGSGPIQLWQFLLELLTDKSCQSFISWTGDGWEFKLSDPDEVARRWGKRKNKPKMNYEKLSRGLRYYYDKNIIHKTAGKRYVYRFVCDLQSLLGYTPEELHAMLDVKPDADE
Technique: protein-binding microarray
Molecule type: double-stranded DNA, one strand shown
Matrix: in vitro
Tested at: not given
Setting: k-mer, scored over probes, only values ≥0.25
Reading: higher = stronger binding
| Strand | E-score |
| --- | --- |
| ACATCCGC | 0.266 |
| ACGACACG | 0.292 |
| CACATTAC | 0.265 |
| ATCCCCAT | 0.261 |
| AAATCACC | 0.258 |
| ACCGCCGC | 0.26 |
| AATACAAA | 0.302 |
| CATACATC | 0.265 |
| CCGGCACC | 0.363 |
| TAAACCTA | 0.251 |
| CCCGGTGA | 0.284 |
| CCGGCAGG | 0.32 |
| TACAGGAA | 0.293 |

Block 4
Target: Histone acetyltransferase KAT6A, winged helix 2, GST fusion (KAT6A, Homo sapiens, UniProt Q92794, residues 85-181)
Technique: protein binding microarray
Molecule type: double-stranded DNA, one strand shown
Matrix: in vitro
Tested at: not given
Setting: 8-mer, flanks averaged, mean of 2 arrays, mostly near background
Relative to: not given
Reading: higher = stronger binding
Construct (chain): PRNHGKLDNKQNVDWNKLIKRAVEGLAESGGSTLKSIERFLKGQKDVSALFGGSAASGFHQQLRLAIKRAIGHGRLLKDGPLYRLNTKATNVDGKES
| Strand | E-score |
| --- | --- |
| CTCGGCTC | 0.103 |
| CCTCTCGC | -0.0931 |
| CCCTACAC | -0.0752 |
| AAGATGCG | -0.116 |
| AGACGTGC | -0.093 |
| CCTATAAA | -0.225 |
| ATTGCTCC | 0.0351 |
| TGACAAAA | 0.0273 |
| GGATATAA | 0.0689 |
| AAGGTTTA | -0.119 |
| GCCATATA | 0.0411 |
| AATATCAG | 0.00769 |
| GCAGTTAA | 0.0205 |
| ATTAAGGA | -0.0505 |
| GAACGACA | 0.0438 |
| ACACATTG | -0.039 |
| AGGTAAAC | 0.121 |
| GCTCGAGA | 0.0221 |
| GCTCCCAA | -0.0465 |
| CTTCATTA | 0.215 |

Block 5
Target: RNA binding protein fox-1 homolog 2, RRM domain, GST-SBP tag (RBFOX2, Homo sapiens, UniProt O43251-10, residues 100-194)
Technique: RNA Bind-n-Seq
Molecule type: RNA
Matrix: in vitro
Tested at: 365 nM
Setting: natural RNA segment, single round, ends assumed
Relative to: no-protein control
Reading: higher = stronger binding
Constant ends, left off below: GGGAGUUCUACAGUCCGACGAUC … UGGAAUUCUCGGGUGCCAA
Target sequence (chain): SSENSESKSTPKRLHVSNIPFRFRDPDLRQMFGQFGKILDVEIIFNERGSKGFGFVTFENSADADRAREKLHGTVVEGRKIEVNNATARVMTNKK
| Strand | RBNS enrichment (R) |
| --- | --- |
| GAAGAGUGAUCUAUGUCUCUUCCCCCAGCAGCUCGGACCACUCCCAGCCCCCCAUCCCCCCGUUCCCCAGGGGAGCUGGGGAAUUCCUGCCAAGCACCUUGAAUGGGAGG | 0.759 |
| UGAAAUUCACUGAAGAAAAAUAUGUGAAGGACCUUCACUCUGAGAUGUUAUAUUUUUUUUUAAAAAUAACUCUGAGUAGGGGUACCACUGAAUCUGUACAGAGCCGUACA | 0.407 |
| GUGGUGGCCUGGGCUGCUGAUGGAGGGGAAGCACCAGUAUCUAGGUGUCUUUGGUAGGGGUGUAUUUUUAUUACACAGAGUUUUUGAACAUAUAGGGACCCCACCAAGAG | 0.814 |
| UUCACCUAGAUGGAAUAGCCACCCUGAGCAGAACUUUGUGAUGCUUCAUUCUGUGGAAUUUUGUGCUUGCUACUGUAUAGUGCAUGUGGUGUAGGUUACUCUAACUGGUU | 0.508 |
| CCAUUGUACAGAGGCCCAGAUUUCUGUAUGUGUCGUGGUCAAUGGCUGGGUUGACAGAGUGGUCUGCCUGUUUGUUGUCUGUGCUCAGCUUGCAGAAGCUGCCAGCUGUG | 0.853 |
| GUAACUAUGGCUUUAUGUUGGGUUACUGUUUAAGGAAAGUUGAUCUGGGCCUUUUUAAAAACAUAAUUAUAUACUUUAGAAAUACAAGGGAUUCCGAUAUGUCAGGACCU | 0.522 |
| UAAUUACGGAUGUAAUUCUGUGUAUCUUACUGUGACUCCGAAAACUGUAGUAUUGGUGUCAUGGGAAUGUACGUUAUUUCCAAAGUCAUUUCAUUAAAGAUGAAAACUUU | 1.09 |
| UGGGGGGAGGAUCCUACGCAGGGGGGACUUGGUGCGUAUAUUAAGGGCUAUAUUUUUCUAGCAUUUGACCUACUUGCGACUUGAUACAGAUUGCAUAGCCUGAAAGAGGC | 0.942 |
| UCUCACAAGCGUCCUUCCUCAUAGGAAGGCUCAUCAACUGAAUUUAGUGACAUGUACACAGUAGAUGCUCAAGCAGUGUCUGCAAGGACACAAGCUGAGCUUUCUCCUUA | 0.274 |
| CACAUCCUAGACCCAGUUCCAUAUACACUUCUUCAUCCCAAUACACAGGAAACAUGGAUAAGGAAGUUGGCAGAAGUCCAACUGUUUCCCAAUCAGUCAAAGGCAGCAAG | 0.424 |
| UUUAGUUACUUAAGUUGAGUAAAUGUCUAAUUGUUUACAAACUAAAUUGACUAAAUAAGGUCAAGGAUAAUGUUUUUCAUUGAUUAACCAUUUAUUAUACAUAUAAUCUA | 0.422 |
| GUUGAUUUCUAGGAGCAGCACUGAGCAGCUGGCCAUUGCUAGCACACACCCUUUCCCUCACCUGUACUAGAGCUUGGCUUGAGGAAGGAAUGAAGGAGCAGCCUUCUGUU | 0.652 |

Block 6
Target: Sal-like protein 4, full length isoform A (SALL4, Homo sapiens, UniProt Q9UJQ4, residues 1-1053)
Sequence of UniProt Q9UJQ4 (whole entry, looked up): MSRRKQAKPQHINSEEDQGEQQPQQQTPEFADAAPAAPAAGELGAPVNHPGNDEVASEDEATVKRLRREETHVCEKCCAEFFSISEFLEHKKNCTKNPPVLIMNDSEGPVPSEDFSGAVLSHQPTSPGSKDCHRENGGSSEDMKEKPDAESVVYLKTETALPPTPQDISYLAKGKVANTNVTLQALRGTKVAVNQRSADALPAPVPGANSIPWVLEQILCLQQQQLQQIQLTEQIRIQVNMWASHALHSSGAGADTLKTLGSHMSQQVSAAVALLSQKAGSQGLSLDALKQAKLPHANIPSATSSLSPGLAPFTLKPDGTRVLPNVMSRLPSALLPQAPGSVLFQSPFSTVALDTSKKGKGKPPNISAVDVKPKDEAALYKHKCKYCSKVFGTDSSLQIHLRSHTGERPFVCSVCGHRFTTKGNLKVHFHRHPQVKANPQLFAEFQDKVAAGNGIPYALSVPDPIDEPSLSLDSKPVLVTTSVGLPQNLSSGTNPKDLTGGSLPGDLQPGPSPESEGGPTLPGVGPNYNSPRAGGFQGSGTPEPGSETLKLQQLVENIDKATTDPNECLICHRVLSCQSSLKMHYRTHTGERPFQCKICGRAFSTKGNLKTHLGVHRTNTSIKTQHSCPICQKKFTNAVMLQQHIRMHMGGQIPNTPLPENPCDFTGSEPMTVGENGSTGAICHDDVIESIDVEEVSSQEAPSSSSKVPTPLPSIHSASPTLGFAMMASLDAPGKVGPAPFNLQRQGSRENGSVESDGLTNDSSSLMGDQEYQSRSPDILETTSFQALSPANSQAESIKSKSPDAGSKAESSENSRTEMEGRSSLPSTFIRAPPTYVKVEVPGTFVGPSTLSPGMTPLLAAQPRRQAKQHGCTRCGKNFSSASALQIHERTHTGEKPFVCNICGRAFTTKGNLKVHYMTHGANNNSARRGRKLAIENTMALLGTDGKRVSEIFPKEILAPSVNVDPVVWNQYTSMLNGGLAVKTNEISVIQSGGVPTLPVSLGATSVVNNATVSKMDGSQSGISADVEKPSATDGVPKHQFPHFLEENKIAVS
Technique: universal PBM
Molecule type: double-stranded DNA, one strand shown
Matrix: in vitro
Tested at: 600 nM
Setting: 8-mer, flanks averaged, mean of replicates
Reading: higher = stronger binding
| Strand | E-score |
| --- | --- |
| AGTCGACG | -0.0344 |
| CACATTAA | 0.199 |
| GCGATTCA | -0.11 |
| CCTTGTCG | -0.0469 |
| ATACCACC | -0.0319 |
| CACGGACA | -0.188 |
| ACGCCCAA | -0.105 |
| CAGGATCA | -0.116 |
| CACAATGA | 0.128 |
| CAACTCAG | -0.0743 |
| CAGGTCGA | -0.15 |
| CTTGTAAC | 0.206 |
| CAGGGTTA | -0.166 |
| AATTTCAT | 0.265 |
| ACTCCCTG | -0.12 |
| TCATGGCA | 0.0406 |
| ATGTCGTC | -0.129 |
| CAACACCC | -0.124 |
| CGGCTCTA | -0.116 |
| TAAACGCA | 0.202 |
| AATAAAGA | 0.277 |
| ACCTTTGG | -0.149 |
| GTTTTTAA | 0.237 |
| CGGGTCTA | -0.157 |
| ATCACTTA | 0.198 |

For quick reference, copied from above (block 6):
| Strand | E-score |
| --- | --- |
| CAACACCC | -0.124 |
| CACGGACA | -0.188 |
| CGGCTCTA | -0.116 |
| CAACTCAG | -0.0743 |
| CAGGGTTA | -0.166 |
| AATTTCAT | 0.265 |
| CAGGATCA | -0.116 |
| ACGCCCAA | -0.105 |
| AGTCGACG | -0.0344 |
| ACTCCCTG | -0.12 |
| CACATTAA | 0.199 |
